Results of several laboratories.
Parts stem from different laboratories: compare values within a part only. Changes are numbered by the printed parent chain.

Sample 1
Target: Ras GTPase-activating protein-binding protein 1, RRM domain (G3BP1, Homo sapiens, UniProt Q13283)
Sequence of UniProt Q13283 (whole entry, looked up): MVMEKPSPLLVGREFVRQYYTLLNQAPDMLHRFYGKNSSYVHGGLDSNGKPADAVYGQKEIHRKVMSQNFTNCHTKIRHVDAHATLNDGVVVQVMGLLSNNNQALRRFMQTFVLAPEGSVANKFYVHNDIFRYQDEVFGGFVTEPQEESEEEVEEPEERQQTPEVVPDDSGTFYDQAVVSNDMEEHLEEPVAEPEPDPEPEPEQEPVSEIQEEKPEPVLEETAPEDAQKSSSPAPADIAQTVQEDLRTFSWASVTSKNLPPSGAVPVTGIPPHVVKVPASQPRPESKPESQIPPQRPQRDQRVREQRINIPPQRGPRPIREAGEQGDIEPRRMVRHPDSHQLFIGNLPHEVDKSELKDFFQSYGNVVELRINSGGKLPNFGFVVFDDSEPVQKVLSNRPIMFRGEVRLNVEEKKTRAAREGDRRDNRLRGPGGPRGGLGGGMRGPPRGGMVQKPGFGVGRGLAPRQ
Method: RNA Bind-n-Seq
Molecule type: RNA
Medium: in vitro
Concentration: 1 µM
Notes: whole 134-nt RNA, ends assumed
Added: 150 mM KCl
Baseline: input library
Reading: higher = stronger binding
The log2 enrichment of `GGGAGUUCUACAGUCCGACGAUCCUCAAGUCCUGUGCUACACAUCGUAUGUACCGAAUCGGGCGGGGCGGGCGGGGAAAGUAUUAUGUUACGCCGUUCGGAUCUGCACUUCCAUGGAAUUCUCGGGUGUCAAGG` is reported as 0.53.
The log2 enrichment of `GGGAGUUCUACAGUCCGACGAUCCCUGUGCUACACAUCGUAUGUACCGAAUCGGGUUUUUUUGGUUUUUUUGGGUUUUUUUGGAAAGUAUUAUGUUACGCCGUUCGGAUCUGCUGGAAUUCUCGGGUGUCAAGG` is reported as -0.113.
For `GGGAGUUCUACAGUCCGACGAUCCAAGUCCUGUGCUACACAUCGUAUGUACCGAAUCGGAAAGGAAAAAGGAAAAAGGAAAGUAUUAUGUUACGCCGUUCGGAUCUGCACUUCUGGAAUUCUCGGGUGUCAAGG`, the log2 enrichment was -0.0656.
The log2 enrichment of `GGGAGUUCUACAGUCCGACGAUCCCUGUGCUACACAUCGUAUGUACCGAAUCGGGGAAAAAAAGGGGAAAAAGGGGAAAGGGGAAAGUAUUAUGUUACGCCGUUCGGAUCUGCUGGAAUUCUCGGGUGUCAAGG` is reported as 0.802.
For `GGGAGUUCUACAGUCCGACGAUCACCAUGCAGGUGGGCAUCUUUGGGAAGUGGGGCAAGGGGGGGAUAGGGAGGGGGGUAACACUUUGGGAACAGGUCGUCCCAGGUCGUUUCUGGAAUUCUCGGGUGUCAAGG`, the log2 enrichment was 0.776.
`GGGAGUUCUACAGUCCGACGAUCAGUCCUGUGCUACACAUCGUAUGUACCGAAUCGGAAAAAGGAAAAAAAGGUUUUUGGAAAGUAUUAUGUUACGCCGUUCGGAUCUGCACUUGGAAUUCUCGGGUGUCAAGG` gave a log2 enrichment of -0.114.
`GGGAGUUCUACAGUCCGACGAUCAGUCCUGUGCUACACAUCGUAUGUACCGAAUCGGGGAAAAGGGGAAAAGGAAAAGGGGAAAGUAUUAUGUUACGCCGUUCGGAUCUGCACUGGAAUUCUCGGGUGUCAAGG` gave a log2 enrichment of 0.111.
For `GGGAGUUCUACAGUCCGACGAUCUGUGCUACACAUCGUAUGUACCGAAUCGGGUUUUUUUGGGUUUUUUUGGGGUUUUUUUGGGGAAAGUAUUAUGUUACGCCGUUCGGAUCUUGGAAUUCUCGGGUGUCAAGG`, the log2 enrichment was 0.00269.
For `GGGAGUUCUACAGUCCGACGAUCUCCUGUGCUACACAUCGUAUGUACCGAAUCGGGGUUUUUGGGGUUUUUGGGGUUUUUGGAAAGUAUUAUGUUACGCCGUUCGGAUCUGCAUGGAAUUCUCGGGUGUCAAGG`, the log2 enrichment was -0.0885.

Sample 2
Target: CCNB2, cyclin fold, Cln2 fusion (human)
Method: yeast growth competition, sequencing
Medium: yeast
Notes: weak parent motif
Baseline: not given
Reading: higher = stronger binding
Parent: PKN2 docking peptide (human); DSTVTKLDFDLEP; partner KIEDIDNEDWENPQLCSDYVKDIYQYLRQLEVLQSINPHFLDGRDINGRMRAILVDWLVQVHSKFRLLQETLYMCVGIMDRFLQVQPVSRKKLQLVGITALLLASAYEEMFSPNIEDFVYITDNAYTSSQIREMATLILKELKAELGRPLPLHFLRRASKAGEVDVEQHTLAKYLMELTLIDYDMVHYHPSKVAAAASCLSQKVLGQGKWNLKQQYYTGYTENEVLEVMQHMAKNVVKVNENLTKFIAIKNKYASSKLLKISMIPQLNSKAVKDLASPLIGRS
Under “normalised enrichment score”, `E12A` is recorded as -0.178.
Under “normalised enrichment score”, `D10A` is recorded as -0.73.
For `S2A`, “normalised enrichment score” read 0.35.
For `T3A`, “normalised enrichment score” read 0.235.
`D8A`: “normalised enrichment score” -0.214.
`V4A`: “normalised enrichment score” 0.00938.

Sample 3
Target: Histone acetyltransferase KAT6A, both winged helices, GST fusion (KAT6A, Homo sapiens, UniProt Q92794, residues 1-181)
Method: protein binding microarray
Molecule type: double-stranded DNA, one strand shown
Medium: in vitro
Concentration: not given
Notes: 8-mer, flanks averaged, mean of 2 arrays, mostly near background
Baseline: not given
Reading: higher = stronger binding
Residues (chain): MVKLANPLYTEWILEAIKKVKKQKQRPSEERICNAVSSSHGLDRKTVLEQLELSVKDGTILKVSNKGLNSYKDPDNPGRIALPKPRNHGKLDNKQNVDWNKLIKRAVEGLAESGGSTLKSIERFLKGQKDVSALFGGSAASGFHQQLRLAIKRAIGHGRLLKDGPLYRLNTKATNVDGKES
With `AAACACAA` the E-score was -0.0933.
With `ATCCAGCA` the E-score was -0.176.
`GACCGCCA` has an E-score of 0.0923.
`ACCTCACT` has an E-score of -0.133.
The E-score of `AGTTGAAC` is reported as -0.0436.
`ACAATCAG` gave an E-score of -0.155.
The E-score of `CACGCTAA` is reported as 0.116.
For `CCCGTAAC`, the E-score was 0.185.
`ATATCTGC` has an E-score of -0.0131.
`CTATAAGC` has an E-score of 0.0487.
With `ATCCAACC` the E-score was -0.113.
For `GATATGCA`, the E-score was -0.00143.
`AGCTATTA` gave an E-score of -0.0988.
With `TACGTTAA` the E-score was 0.0941.
`CACCTTAC` gave an E-score of -0.0631.
The E-score of `AAGAGATG` is reported as -0.168.
`GAGAGATA` gave an E-score of -0.0516.
`TCCATGCA` has an E-score of -0.0169.
For `ATGAGCTG`, the E-score was -0.0696.
With `GTAGGATA` the E-score was -0.201.
`AGTACGTC` has an E-score of -0.0671.

Sample 4
Target: Sal-like protein 4, full length isoform A (SALL4, Homo sapiens, UniProt Q9UJQ4, residues 1-1053)
Sequence of UniProt Q9UJQ4 (whole entry, looked up): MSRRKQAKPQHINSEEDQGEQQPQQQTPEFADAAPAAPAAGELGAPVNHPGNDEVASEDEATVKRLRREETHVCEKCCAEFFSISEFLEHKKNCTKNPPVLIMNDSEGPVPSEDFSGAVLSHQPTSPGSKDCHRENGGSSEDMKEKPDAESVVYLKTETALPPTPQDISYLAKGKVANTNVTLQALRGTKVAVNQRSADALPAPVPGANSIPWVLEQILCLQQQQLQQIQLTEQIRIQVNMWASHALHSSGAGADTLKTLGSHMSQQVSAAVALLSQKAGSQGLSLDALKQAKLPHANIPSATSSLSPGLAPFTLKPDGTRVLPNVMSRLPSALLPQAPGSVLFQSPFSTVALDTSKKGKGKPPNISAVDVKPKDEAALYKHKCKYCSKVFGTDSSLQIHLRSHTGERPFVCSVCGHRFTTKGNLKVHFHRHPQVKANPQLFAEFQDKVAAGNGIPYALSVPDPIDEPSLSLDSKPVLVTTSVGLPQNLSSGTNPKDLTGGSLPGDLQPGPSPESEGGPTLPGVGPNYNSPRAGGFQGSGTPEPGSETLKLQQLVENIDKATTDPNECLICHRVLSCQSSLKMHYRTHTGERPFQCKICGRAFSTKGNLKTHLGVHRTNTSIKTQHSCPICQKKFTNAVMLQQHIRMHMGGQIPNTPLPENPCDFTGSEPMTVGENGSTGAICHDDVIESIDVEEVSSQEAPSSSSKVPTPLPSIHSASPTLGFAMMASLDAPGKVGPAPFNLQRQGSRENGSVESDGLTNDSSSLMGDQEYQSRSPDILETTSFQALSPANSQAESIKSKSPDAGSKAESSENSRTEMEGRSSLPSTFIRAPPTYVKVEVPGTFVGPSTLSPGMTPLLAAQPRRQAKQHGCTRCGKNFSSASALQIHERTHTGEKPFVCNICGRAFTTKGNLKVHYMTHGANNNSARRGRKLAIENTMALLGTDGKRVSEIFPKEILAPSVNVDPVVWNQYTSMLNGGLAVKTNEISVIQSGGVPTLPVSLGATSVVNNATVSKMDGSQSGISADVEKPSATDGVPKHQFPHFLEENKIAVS
Method: universal PBM
Molecule type: double-stranded DNA, one strand shown
Medium: in vitro
Concentration: 600 nM
Notes: 8-mer, flanks averaged, mean of replicates
Reading: higher = stronger binding
`GGAGACCA` gave an E-score of -0.201.
For `AACGCGTG`, the E-score was 0.0504.
`CTCGTTAA` has an E-score of 0.0405.
For `CTCTAGAC`, the E-score was -0.00593.
The E-score of `CACGGGCA` is reported as -0.274.
The E-score of `CGAGGCCA` is reported as -0.286.
`TTACCCAA` has an E-score of 0.044.
With `ATCTCATC` the E-score was 0.0854.
The E-score of `AACATAAC` is reported as 0.299.
For `AGTGGAAT`, the E-score was 0.19.
The E-score of `AAAAATTG` is reported as 0.383.
With `CAACAACA` the E-score was 0.22.
`AGTGTTGC` has an E-score of 0.175.
The E-score of `GTCTAAGA` is reported as -0.0647.
`TACACGCA` gave an E-score of -0.0425.
`CATCGTTA` gave an E-score of 0.0871.
With `CAGGGGTC` the E-score was -0.256.
`AGTGCTTA` gave an E-score of 0.0932.

Other studies, line by line
`PhoQ, residues 284 288 289 292 302 303 TLMATV` has a fold induction of 21.7 (PhoP, residues 12 14 15 18 19 SYFRT (Escherichia coli, UniProt P23836); Sort-seq, item: YFP reporter; E. coli; PhoQ-PhoP variant library, added: 10 µM Mg2+; baseline: high Mg2+ state, higher = stronger signaling).
